Assay results pooled from the literature.
Every numbered part comes from another study and shows a few of its results, in no order.

Block 1 — method: universal PBM; molecule type: double-stranded DNA, one strand shown; medium: in vitro; concentration: 600 nM; reading: higher = stronger binding; measurement: E-score
Target: Sal-like protein 4, full length isoform A (SALL4, Homo sapiens, UniProt Q9UJQ4, residues 1-1053)
Chain of UniProt Q9UJQ4 (whole entry, looked up): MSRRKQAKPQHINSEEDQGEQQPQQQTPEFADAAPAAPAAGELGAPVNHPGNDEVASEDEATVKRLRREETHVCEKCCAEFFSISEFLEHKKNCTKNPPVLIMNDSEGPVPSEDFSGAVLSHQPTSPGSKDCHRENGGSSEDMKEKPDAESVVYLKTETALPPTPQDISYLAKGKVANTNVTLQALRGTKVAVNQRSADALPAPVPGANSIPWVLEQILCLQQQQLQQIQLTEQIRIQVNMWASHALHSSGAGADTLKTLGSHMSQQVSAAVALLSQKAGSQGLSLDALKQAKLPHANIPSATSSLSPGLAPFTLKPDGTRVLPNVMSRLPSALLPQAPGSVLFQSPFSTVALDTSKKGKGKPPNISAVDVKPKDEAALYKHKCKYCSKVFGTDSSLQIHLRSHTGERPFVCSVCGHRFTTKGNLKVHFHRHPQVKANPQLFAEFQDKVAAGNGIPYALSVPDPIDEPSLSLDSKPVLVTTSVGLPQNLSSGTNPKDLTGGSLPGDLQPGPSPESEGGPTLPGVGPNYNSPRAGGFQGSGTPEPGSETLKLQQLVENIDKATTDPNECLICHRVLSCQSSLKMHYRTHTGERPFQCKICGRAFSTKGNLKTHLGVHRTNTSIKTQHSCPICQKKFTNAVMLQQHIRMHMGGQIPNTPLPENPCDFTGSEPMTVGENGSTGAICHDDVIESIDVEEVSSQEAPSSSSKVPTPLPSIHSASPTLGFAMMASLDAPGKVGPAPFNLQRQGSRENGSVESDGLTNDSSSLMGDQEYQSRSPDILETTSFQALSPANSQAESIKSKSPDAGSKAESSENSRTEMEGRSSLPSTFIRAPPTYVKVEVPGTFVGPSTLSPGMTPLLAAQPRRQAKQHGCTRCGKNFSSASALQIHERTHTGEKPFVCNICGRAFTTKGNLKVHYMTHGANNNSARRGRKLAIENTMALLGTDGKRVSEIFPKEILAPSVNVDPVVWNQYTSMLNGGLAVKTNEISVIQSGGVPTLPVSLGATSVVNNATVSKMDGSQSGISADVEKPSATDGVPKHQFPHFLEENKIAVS
Notes: 8-mer, flanks averaged, mean of replicates
AGCCCATC: -0.168
CACGAGGG: -0.309
GTTGACAA: 0.11
TCGACGCA: -0.117
GTGCTGAA: -0.125
ACTTTTCC: 0.182
AATGAAAG: 0.219
ATTCCCTC: -0.0845
GCCATTAC: -0.0591
ATGCAGGC: -0.14
AGGAGTGA: -0.0322
AGTAAAGC: 0.205
TCTCTGCA: -0.0162
ATTTTTAA: 0.355
CTCACTGA: -0.0456
ACGCGTCC: -0.158
CAACTTAG: 0.0253
ATATCGGC: 0.0245
CTGAGCTA: -0.185
AGGAGCAC: -0.12
GATGAATA: 0.311
GACTGGCA: -0.298
GACTCCAA: -0.142
GTGTTTCA: 0.0612

Block 2 — method: RNA Bind-n-Seq; molecule type: RNA; medium: in vitro; concentration: 365 nM; reference: no-protein control; reading: higher = stronger binding; measurement: RBNS enrichment (R)
Target: RNA binding protein fox-1 homolog 2, RRM domain, GST-SBP tag (RBFOX2, Homo sapiens, UniProt O43251-10, residues 100-194)
Notes: natural RNA segment, single round, ends assumed
Constant ends, left off below: GGGAGUUCUACAGUCCGACGAUC … UGGAAUUCUCGGGUGCCAA
CAUUUUGUGUGUGCAGACAAGGGUGAGGAGACUCGCCAGCCUGCUCUCUCAGGAGCACGUGUGAACCGUCUUCGUGCUUCAGCGAAAGCGAGUUUGAGGCAGUCUUGCAA: 0.706
AUUCAGUUUCAGAGGGACAGUUUUGAGGAUUAAGACACUUGGAAACAGAAGAACUCUGGUAAUGCUUAGUCUUGUGAGAACCAGUUAUUCUGGGCUGUGAAGGCAGUUGC: 1.28
GGAUAUAAGAUUAAUGGAAUGUAUAUUUUUAUAUAAGACGUAUACGGCACCUUCUUGAAAAGGAAGCAUUUGAACUUGUUCCUCCCUAUAGUUCUAUUGCCUUAUAUGCA: 7.57
UGGACAGAUUGUAAGAGUAAGUCAUUUUCCUAAAGAAUUAGAUAUUUGUCACUGCCUAUACCUGCAGUUGAGCUGAAUGGUACUCCAUGUGUUAAUAAUUGUUCUGAUGA: 0.447
UAAAAGCCUUCAACCAUGAUUUUCAUCAUUGGAAAUAGAAUUGAAUGGCCACCCUGUGUUGUGGGAACUGAGAAGGGCAAUAUAAACCUGAGAGGUUCCUUUGUGUGGUG: 0.994
UGCACUAAUCUAUCUGAAGAAAAAAACUAUAUCAACUUUGGUAUCUACUUUCCGUUUACUUCAAUCCUUGCCUUUUUGGUCAUUGUUAUAAUGCCAGCUUUAGGACAGAA: 1.23
GCUCCAACAUUUUGAUUCCUGUUAAUUUUGUUCUUUAAUUAAAUGACUACUUAUUACAGGAAAUGAAUAAAGGCUUUCACUUUCUUGGGGUUGGGAUGAGGUAUAGCUGG: 0.467
AUGCACCUUGAGAUAAUUUAGUGUUUUUAACUGGUACAUAAUUUAUCAAGCAGUACAUGAAAGUGUAAUAAUAAAAUGUCUAUGUAUCUUUAGUUACAUUCAGAUUUGUA: 0.646
UGGUUAGUGCUCACCCACAAGCUUCCAGGAGCCAGCUGGGAGGAGACAAUAGGAAGAGAUGUCAUCUCUGCUCUCCCUGUAAAUGUUAGUUGAACUAAGUUAUGGAUUUG: 0.624
CAGACCAGGAAGCUCGGUGAGUGAUGGCAGAACGAUGCCUGCAGGCAUGGAACUUUUUCCGUUAUCACCCAGGCCUGAUUCACUGGCCUGGCGGAGAUGCUUCUAAGGCA: 0.577
GGUCCAUGGGAAUGGACAUGAAGAGGAUUUCACAGUAUGUAGAGCAGAAGGCACGUGAAUGUGUUUGCUUUGGCUUGGAGCUUAUUAAGUUUUGACUACGGUUAAAAUAA: 0.931
AAAACAGGACAAAGAGCUCUGCAGCAUCCUCAUGCCCUAUUACAUUCUCAGCCCAGUGGGCCUCAGCUGCCUUUGGUAGGUUCCAUCCCUUAGCCAUUCCCACCCAUCUG: 0.934

Block 3 — method: protein binding microarray; molecule type: double-stranded DNA, one strand shown; medium: in vitro; concentration: not given; reference: not given; reading: higher = stronger binding; measurement: E-score
Target: Histone acetyltransferase KAT6A, winged helix 1, GST fusion (KAT6A, Homo sapiens, UniProt Q92794, residues 1-85)
Notes: 8-mer, flanks averaged, mean of 2 arrays, mostly near background
Target sequence (chain): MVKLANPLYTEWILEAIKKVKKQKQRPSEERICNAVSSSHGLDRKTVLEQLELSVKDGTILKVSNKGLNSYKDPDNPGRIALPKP
AAAGCCGG: 0.342
AGCACGAA: -0.191
ATTAAATG: -0.116
GCCATAGA: 0.00709
AAGGAAGA: -0.234
AGACAACG: 0.0162
CCCTATCA: -0.253
GGGTATAA: 0.0215
GAGTCGGA: 0.0806
CTCCTGAA: 0.039
AGGGCGCA: 0.251
AGCACGCC: 0.207
CTTGAGGA: -0.107
ATGCTCAG: -0.217
GCTAGATA: -0.0603
AAAAACTT: -0.251
CCAAGATC: -0.212
CGCTCACC: 0.203
ATAAAATC: -0.00748
AAAAGATG: -0.0366
CCGTGACA: 0.279
GAGAATAC: -0.0284
GGCGGTAA: 0.383
ATGAAAGG: -0.0786
ATTGCGTG: 0.0769

Block 4 — method: protein-binding microarray; molecule type: double-stranded DNA, one strand shown; medium: in vitro; concentration: 2540 nM top; notes: 60-bp whole probe; together with: salmon DNA 0.4 mg/ml; reference: random background probes; reading: higher = stronger binding; measurement: fitted relative affinity; constant ends, left off below: GCCTAGCAC … GTCTTGATTCGCTTGACGCTGCTG
Target: Interferon regulatory factor 3, full length, phosphomimetic (IRF3, Homo sapiens, UniProt Q14653, residues 1-427, S386D/S396D/S398D/S402D/T404D/S405D)
Target sequence (chain): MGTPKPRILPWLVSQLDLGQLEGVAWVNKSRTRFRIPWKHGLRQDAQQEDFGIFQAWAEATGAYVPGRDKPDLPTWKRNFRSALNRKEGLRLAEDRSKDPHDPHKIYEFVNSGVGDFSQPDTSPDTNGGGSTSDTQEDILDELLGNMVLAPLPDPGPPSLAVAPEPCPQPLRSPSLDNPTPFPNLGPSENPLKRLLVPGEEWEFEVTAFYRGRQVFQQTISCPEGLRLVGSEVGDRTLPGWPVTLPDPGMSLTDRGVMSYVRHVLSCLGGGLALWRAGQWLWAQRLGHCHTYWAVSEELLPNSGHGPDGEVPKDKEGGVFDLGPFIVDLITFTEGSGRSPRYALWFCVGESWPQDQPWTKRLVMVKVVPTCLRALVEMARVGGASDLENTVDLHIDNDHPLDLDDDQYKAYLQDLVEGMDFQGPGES
TTAGAACTGGGGTGTCGATTAGTGCTA: -0.401 z-score
TCATTTTCGTTTTTATTACTGTGCTAG: 6.5 z-score
TTGGTTCTTATCCTTCCCCTCGTGCTA: 0.251 z-score
ACTTGTATTTGTCCCTATTTGTGCTAG: 0.933 z-score
GTAGGTCTCCTTCTCCTTTAGTGCTAG: 4.28 z-score
TGAGATCTCAGACTGGATTAGTGCTAG: -0.335 z-score
CTGCCTTTCAATCCTAGGCCGTGCTAG: 0.998 z-score
GACTGACTGCTTATCCTGACGTGCTAG: -0.465 z-score
CTAGATATCGGGACTGGATTAGTGCTA: 0.141 z-score
TTGGATATCAGACTGGATTAGTGCTAG: -0.193 z-score
GACGGTATAGGTTTCGGGACGTGCTAG: 2.53 z-score
TCACCTCTCTGTCCCCCTTTGTGCTAG: 0.955 z-score
TTAGAACTGACTCTCGATTAGTGCTAG: -0.395 z-score
TTAGGACTGCTTCTCCATTAGTGCTAG: -0.246 z-score
GACGATTTCAGTCTAGAGACGTGCTAG: 1.75 z-score
TTCTGTATGGGCATTTTTCTAGTGCTA: 0.133 z-score
TTAGGACTGGACTTTGGGTTAGTGCTA: -0.9 z-score
TTAGGACTGGACTATCGGTTCGTGCTA: -0.165 z-score
TTAGGACTGGGTAACGGTTAGTGCTAG: -0.537 z-score
GACGGACTGGCTCTCGGGACGTGCTAG: -0.71 z-score
TCTGTTTTTGCTTTCTTTATGTGCTAG: 2.38 z-score
GACGGACTGCGGACTGGGGACGTGCTA: -0.988 z-score
TCTGATTTCTCAAACAGCTCGTGCTAG: 0.497 z-score
GACGGACCGCTACTGCTGACGTGCTAG: -0.536 z-score
TCATTTCTAATGTTTTTTACTGTGCTA: 1.88 z-score
